# Measured values gathered from unrelated publications.
# Lines come from different studies, so protocols differ. ± gives the spread as reported.
SMILES,tested on,test,system,conditions,how to read,quantity,value
C[C@@H](C(=O)O)c1ccc(-c2ccccc2)c(F)c1,,HPLC,reference solution,"concentration not given, 12 h, room temperature, solution stability",,peak area change,≤ 2%
C#CCOCCOCCOCCOCCn1cc(C(ONC(=O)/C=C/C(C)=C/C2(C)Oc3cc(N(C)C)ccc3C2=O)(c2ccc(C)cc2)c2ccc(C)cc2)nn1 (centres unmarked),,HPLC,"aqueous buffer, 20% acetonitrile","concentration not given, 246 min, pH 3",baseline: initial prodrug amount,release from prodrug hydrolysis,36.2%
N=C(N)NCCC[C@@H]1NC(=O)[C@H](CO)NC(=O)[C@@H](NC(=O)[C@H](CO)NC(=O)[C@H](CO)NC(=O)[C@H](Cc2c[nH]c3ccccc23)NC(=O)CNC(=O)[C@H](CO)NC(=O)[C@@H](N)Cc2c[nH]c3ccccc23)CSSC[C@@H](C(=O)NCC(=O)O)NC(=O)[C@H](CO)NC1=O,,,"patients, plasma","intravenous, 10 mg/kg, thrice weekly, mean",,AUC(0-inf),908 ng·h/mL
COc1ccnc(C(=O)N[C@H]2COC(=O)[C@H](Cc3ccccc3)[C@@H](OC(=O)C(C)C)[C@H](C)OC2=O)c1O,,soil adsorption,soil,"pH 5.9, organic carbon 0.9 %",,KFoc,33600 mL/g
CN(C)CCCCCN(C)Cc1cc2ccccc2o1,Trypanosoma cruzi,"reporter mRNA translation, inhibitor, measured: capped polyadenylated Renilla luciferase mRNA",cell-free extract,concentration not given,baseline: control RNA,relative translation,94.8%
CC(C)(O)c1ncc([S@](N)(=O)=NC(=O)Nc2c3c(cc4c2CCC4)CCC3)s1,,measured: musculoskeletal-connective tissue disorders,healthy human volunteers,"oral, 10 mg single dose, crystalline suspension",,subjects with TEAEs,17%
CN1CCC[C@]1(C)/C=C/S(=O)(=O)NC(=O)Nc1c2c(cc3c1CCC3O)CCC2 (some centres unmarked),,,"human, plasma","oral, 12.5 mg twice daily of parent drug, day 14, metabolite of dosed drug",,Cmax at second steady-state dose,10900 ng/mL
Cc1noc(C)c1Cn1cc(N2C(=O)CN(Cc3cccc(OS(=O)(=O)O)c3)C2=O)cn1,,,"Sprague-Dawley rat, male","oral, 30 mg/kg of parent drug, 8 h",,plasma concentration,1690 ng/mL
O=C([O-])CN1CCN(CC(=O)[O-])CCN(CC(O)CN(CC(O)CN2CCN(CC(=O)[O-])CCN(CC(=O)[O-])CCN(CC(=O)[O-])CC2)C[C@H](O)[C@@H](O)[C@H](O)[C@H](O)CO)CCN(CC(=O)[O-])CC1.[Gd+3] (some centres unmarked),,"pH-potentiometry, measured: Gd(HL)M, M = Zn2+",,"25 °C, 0.15 M NaCl",,log K,5.32
Cc1c(Cc2cccc(OC(C)(C)C(=O)O)c2)c2ccc(C(=O)N[C@@H](C)c3cccc(C(C)(C)C)c3)cc2n1CC(C)C,,,human liver microsomes,"1 µM, together with: microsomes 1 mg/mL",,half-life,> 1 h
CCn1nc(Cl)c2c1-c1cnc(N)c(c1)O[C@H](C)c1cc(F)ccc1-c1nn(C)cc1C2,,,"mouse, plasma","oral, 10 mg/kg, 1 h, 1 doses",,free plasma concentration,27 ± 2.7 nM
CC[C@H](C)[C@H](NC(=O)CNC(=O)[C@H](C)NC(=O)[C@H](CC(=O)O)NC(=O)[C@H](CO)NC(=O)[C@H](C)NC(=O)[C@H](CC(C)C)NC(=O)[C@H](CCCCN)NC(=O)[C@H](CCCCN)NC(=O)[C@H](CCSC)NC(=O)[C@H](CC(N)=O)NC(=O)[C@H](Cc1ccccc1)NC(=O)[C@H](CC(=O)O)NC(=O)[C@@H](N)CCSC)C(=O)N[C@@H](Cc1c[nH]c2ccccc12)C(=O)N[C@@H](Cc1ccccc1)C(=O)N[C@H](C(=O)N[C@@H](CCCNC(=N)N)C(=O)N[C@@H](C)C(=O)N[C@H](C(=O)N[C@@H](CCC(N)=O)C(=O)N[C@@H](Cc1ccccc1)C(=O)N[C@H](C(=O)N[C@@H](CCC(=O)O)C(=O)N[C@@H](CCC(=O)O)C(=O)N[C@@H](CCCCN)C(=O)N[C@@H](Cc1ccccc1)C(=O)NCC(=O)N[C@@H](CCC(N)=O)C(=O)N[C@@H](C)C(N)=O)[C@@H](C)O)C(C)C)[C@@H](C)O,,circular dichroism titration,100% DOPS liposomes,"50 µM, pH 7.4, 20 °C",,ΔG of binding,-6.6 kcal/mol
CN(C)CCCN(C(=O)c1nc2ccccc2s1)c1nc2ccc(F)cc2s1,Trypanosoma cruzi,"reporter mRNA translation, inhibitor, measured: Renilla luciferase mRNA",cell-free extract,"concentration not given, test 2",baseline: positive over negative control,translation activity,99.2%
O=C(O)CCCOc1ccc([18F])cc1-c1cc(-c2ccccc2C(F)(F)F)n(-c2ccccc2)n1,,OLINDA/EXM extrapolation from mouse,"human adult, red marrow",,,absorbed radiation dose,9.97 µGy/MBq
CN(O)C(=O)CCC(=O)NCCCN(CCCCN(CCCNC(=O)CCC(=O)N(C)O)C(=O)CCC(=O)N(C)O)C(=O)CCC(=O)N(C)O.[89Zr],,radio-TLC,aqueous buffer,"3 d, pH 5, 37 °C, 89Zr-labelled complex, together with: DTPA 100-fold excess",,intact complex,98 ± 0.4%
COc1cnc2cccc(N3CCc4c(cc(Cn5ccnc5)cc4-c4cn(C)nc4C(F)(F)F)C3=O)c2c1,,,"male CD-1 mouse, plasma","oral, 10 mg/kg",,AUC(0-inf),3850 ng·h/mL
CN(C)S(=O)(=O)c1ccc(S(=O)(=O)N2CCC(n3c(=O)[nH]c4ccccc43)CC2)cc1,,,mouse,"intraperitoneal, 6 mg/kg, 2 day",baseline: day 0,body weight,95.2%

# Excerpt of the above:
SMILES,tested on,test,system,conditions,how to read,quantity,value
CN(C)CCCCCN(C)Cc1cc2ccccc2o1,Trypanosoma cruzi,"reporter mRNA translation, inhibitor, measured: capped polyadenylated Renilla luciferase mRNA",cell-free extract,concentration not given,baseline: control RNA,relative translation,94.8%
